# Measured values pooled from the literature.
# Protocols differ between the studies behind these lines.
# ALK: ALK tyrosine kinase receptor (ALK, Homo sapiens, UniProt Q9UM73)
# UniProt Q9UM73, sequence (whole entry, unmodified, looked up): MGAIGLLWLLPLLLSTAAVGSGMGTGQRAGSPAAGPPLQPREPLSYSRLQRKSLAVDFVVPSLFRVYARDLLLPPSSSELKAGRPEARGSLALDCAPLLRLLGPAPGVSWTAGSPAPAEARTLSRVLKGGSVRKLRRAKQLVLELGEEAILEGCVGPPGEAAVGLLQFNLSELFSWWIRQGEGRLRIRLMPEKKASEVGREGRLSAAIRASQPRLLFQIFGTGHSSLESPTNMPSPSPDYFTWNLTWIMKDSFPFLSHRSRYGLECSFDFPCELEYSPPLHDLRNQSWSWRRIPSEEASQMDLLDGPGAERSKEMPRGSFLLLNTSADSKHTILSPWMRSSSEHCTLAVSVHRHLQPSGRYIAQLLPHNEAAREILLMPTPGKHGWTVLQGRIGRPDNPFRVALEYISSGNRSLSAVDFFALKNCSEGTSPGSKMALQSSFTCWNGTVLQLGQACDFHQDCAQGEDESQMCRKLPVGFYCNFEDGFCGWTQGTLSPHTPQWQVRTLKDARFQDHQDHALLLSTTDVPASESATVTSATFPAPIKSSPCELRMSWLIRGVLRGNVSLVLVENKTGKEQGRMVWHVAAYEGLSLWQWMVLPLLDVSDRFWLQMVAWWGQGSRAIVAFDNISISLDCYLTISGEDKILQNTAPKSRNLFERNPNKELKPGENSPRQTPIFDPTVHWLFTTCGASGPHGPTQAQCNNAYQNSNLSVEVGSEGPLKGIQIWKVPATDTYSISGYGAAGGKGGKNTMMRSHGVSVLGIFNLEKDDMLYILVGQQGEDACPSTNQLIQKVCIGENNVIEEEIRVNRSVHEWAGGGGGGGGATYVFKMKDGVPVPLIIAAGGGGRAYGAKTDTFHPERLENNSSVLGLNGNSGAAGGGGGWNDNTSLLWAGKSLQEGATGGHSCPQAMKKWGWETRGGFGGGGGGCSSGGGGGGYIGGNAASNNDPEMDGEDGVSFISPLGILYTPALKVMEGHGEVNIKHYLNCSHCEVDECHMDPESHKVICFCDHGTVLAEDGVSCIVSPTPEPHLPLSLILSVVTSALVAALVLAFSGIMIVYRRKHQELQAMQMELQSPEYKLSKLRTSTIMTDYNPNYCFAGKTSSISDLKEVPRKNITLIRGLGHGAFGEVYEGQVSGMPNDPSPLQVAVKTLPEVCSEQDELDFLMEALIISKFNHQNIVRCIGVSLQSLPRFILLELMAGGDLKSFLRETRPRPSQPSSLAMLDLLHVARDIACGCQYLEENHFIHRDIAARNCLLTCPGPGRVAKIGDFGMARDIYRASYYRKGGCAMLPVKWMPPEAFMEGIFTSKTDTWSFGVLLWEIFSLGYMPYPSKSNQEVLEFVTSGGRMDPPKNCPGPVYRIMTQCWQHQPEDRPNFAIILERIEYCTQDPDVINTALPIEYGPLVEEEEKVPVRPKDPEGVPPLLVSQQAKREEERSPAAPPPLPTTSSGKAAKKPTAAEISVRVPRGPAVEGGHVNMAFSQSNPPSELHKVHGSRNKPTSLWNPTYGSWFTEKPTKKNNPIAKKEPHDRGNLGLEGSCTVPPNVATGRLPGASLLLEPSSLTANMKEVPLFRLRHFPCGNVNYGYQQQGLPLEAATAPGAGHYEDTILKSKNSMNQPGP
Structure (SMILES),target,effect on,mode,method,with,quantity,result
Cc1ccc2oc(-c3c4c(N)n[nH]c(=O)c4nn3-c3ccc(NC(=O)/C=C/CN(C)C)cc3)c(C)c2c1,ALK,enzyme activity,inhibitor,ELISA,,IC50,> 1000 nM
CN(C)/C=C/C(=O)c1ccc2[nH]c3ncc(-c4ccc(N5CCN(C)CC5)cc4)cc3c2c1,"ALK (Homo sapiens, UniProt Q9UM73, R1275Q)",enzyme activity,inhibitor,radiometric,,IC50,250 nM
CCn1nc(Cl)c2c1-c1cnc(N)c(c1)O[C@H](C)c1cc(F)ccc1-c1nn(C)cc1C2,"ALK (Homo sapiens, UniProt Q9UM73, G1202R)",enzyme activity,inhibitor,,1 mM ATP,IC50,0.9 nM
COc1cc(N2CCN(C(=O)C3CCCN3)CC2)ccc1Nc1ncc(Cl)c(Nc2ccccc2P(C)(C)=O)n1 (stereo not shown),ALK,binding,,ITC,,Kd,144 nM
N=C(N)NCCC[C@@H]1NC(=O)[C@H](Cc2c[nH]c3ccccc23)NC(=O)[C@H](CCCNC(=N)N)NC(=O)[C@H](Cc2c[nH]c3ccccc23)NC(=O)[C@H](CCCNC(=N)N)NC(=O)[C@H](Cc2c[nH]c3ccccc23)NC(=O)[C@H](CCCNC(=N)N)NC(=O)[C@H](Cc2c[nH]c3ccccc23)NC(=O)[C@H](CCCNC(=N)N)NC(=O)[C@H](Cc2c[nH]c3ccccc23)NC(=O)[C@H](CCCNC(=N)N)NC(=O)[C@H](Cc2c[nH]c3ccccc23)NC(=O)[C@H](CCCNC(=N)N)NC(=O)[C@H](Cc2c[nH]c3ccccc23)NC1=O,ALK,enzyme activity,inhibitor,,,IC50,< 250 nM
C(=C\c1cnc2[nH]c3ccccc3c2c1)/c1ccccc1,ALK,enzyme activity,inhibitor,ELISA,,IC50,340 nM
Cn1cc(-c2cc3c(N4CCC[C@H](C(=O)NCc5ccc(OC(F)(F)F)cc5)C4)ncnc3[nH]2)cn1,ALK,enzyme activity,inhibitor,TR-FRET,,IC50,< 10 nM
N=C(N)NCCC[C@@H]1NC(=O)[C@H](Cc2c[nH]c3ccccc23)NC(=O)[C@H](CCCNC(=N)N)NC(=O)[C@H](Cc2c[nH]c3ccccc23)NC(=O)[C@H](CCCNC(=N)N)NC(=O)[C@H](Cc2c[nH]c3ccccc23)NC(=O)[C@H](CCCNC(=N)N)NC(=O)[C@H](Cc2c[nH]c3ccccc23)NC(=O)[C@H](CCCNC(=N)N)NC(=O)[C@H](Cc2c[nH]c3ccccc23)NC(=O)[C@H](CCCNC(=N)N)NC(=O)[C@H](Cc2c[nH]c3ccccc23)NC(=O)[C@H](CCCNC(=N)N)NC(=O)[C@H](Cc2c[nH]c3ccccc23)NC(=O)[C@H](CCCNC(=N)N)NC(=O)[C@H](Cc2c[nH]c3ccccc23)NC(=O)[C@H](CCCNC(=N)N)NC(=O)[C@H](Cc2c[nH]c3ccccc23)NC1=O,ALK,enzyme activity,inhibitor,,,IC50,< 250 nM
Cc1nn(C)cc1-c1cc2c(N3CCC[C@H](C(=O)NCc4ccc(OC(F)(F)F)cc4)C3)ncnc2[nH]1,ALK,enzyme activity,inhibitor,TR-FRET,,IC50,< 10 nM
CN(C(=O)c1ccn2ncc(-c3ccc(C(N)=O)cc3)c2c1)c1ccc(C#N)cn1,ALK,enzyme activity,inhibitor,,,IC50,> 10000 nM

# A few entries again:
Structure (SMILES),target,effect on,mode,method,with,quantity,result
C(=C\c1cnc2[nH]c3ccccc3c2c1)/c1ccccc1,ALK,enzyme activity,inhibitor,ELISA,,IC50,340 nM
